# Published values of several laboratories.
# Every numbered part comes from another study and shows a few of its results, in no order. Changes are numbered by the printed parent chain.

# Series 1
# Target: Interferon regulatory factor 3, full length, phosphomimetic (IRF3, Homo sapiens, UniProt Q14653, residues 1-427, S386D/S396D/S398D/S402D/T404D/S405D)
# Method: protein-binding microarray
# Molecule type: double-stranded DNA, one strand shown
# Matrix: in vitro
# Concentration: 2540 nM top
# Setting: 60-bp whole probe
# Together with: salmon DNA 0.4 mg/ml
# Relative to: random background probes
# Reading: higher = stronger binding
# Shared flanks, not repeated: GCCTAGCAC … GTCTTGATTCGCTTGACGCTGCTG
# Residues (chain): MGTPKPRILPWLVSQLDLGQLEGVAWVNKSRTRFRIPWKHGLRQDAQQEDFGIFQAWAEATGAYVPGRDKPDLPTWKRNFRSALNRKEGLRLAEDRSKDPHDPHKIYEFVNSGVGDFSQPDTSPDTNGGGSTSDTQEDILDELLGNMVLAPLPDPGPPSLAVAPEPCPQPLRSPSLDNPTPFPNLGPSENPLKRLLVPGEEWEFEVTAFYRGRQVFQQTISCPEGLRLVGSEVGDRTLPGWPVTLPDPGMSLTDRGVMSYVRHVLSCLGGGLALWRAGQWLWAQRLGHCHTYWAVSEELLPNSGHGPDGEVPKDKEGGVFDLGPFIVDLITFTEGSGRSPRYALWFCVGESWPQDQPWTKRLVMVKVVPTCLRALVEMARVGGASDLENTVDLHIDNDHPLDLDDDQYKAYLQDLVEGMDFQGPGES
Oligonucleotide,fitted relative affinity [z-score]
GACGGTTTCCTTTCCCCGACGTGCTAG,10.6
GACGAACTGGGGTTTCGAGATGTGCTA,0.436
GACGGACTGGGGTTACGGGACGTGCTA,-0.712
TCATTTTTTTATTTATAACTGTGCTAG,1.54
TTAGGGCTCGGTTTCGGTTAGTGCTAG,4.39
TCACACTTGTGTTTGGGACTGTGCTAG,0.00543
GACGGTTTCGGTTTCGGTACGTGCTAG,11.8
GACGATTTCGAGTATCGAGACGTGCTA,1.32
TCAGCTACACATCTCACACTGTGCTAG,0.496
TTACGACTGCTTATCCTTTAGTGCTAG,-0.17
AGTTGTTTTAAATTCTAATTGTGCTAG,1.33

# Series 2
# Target: RNA binding protein fox-1 homolog 2, RRM domain, GST-SBP tag (RBFOX2, Homo sapiens, UniProt O43251-10, residues 100-194)
# Method: RNA Bind-n-Seq
# Molecule type: RNA
# Matrix: in vitro
# Concentration: 365 nM
# Setting: natural RNA segment, single round, ends assumed
# Relative to: no-protein control
# Reading: higher = stronger binding
# Shared flanks, not repeated: GGGAGUUCUACAGUCCGACGAUC … UGGAAUUCUCGGGUGCCAA
# Residues (chain): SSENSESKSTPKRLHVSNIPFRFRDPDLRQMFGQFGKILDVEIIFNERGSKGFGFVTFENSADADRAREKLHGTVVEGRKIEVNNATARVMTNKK
Oligonucleotide,RBNS enrichment (R)
UAAUGUAUUUUCUUUUUAUUUUGCACUCUGUAAUUGCACUUUUUAAGUUUGAAGAGCCAUUUUGGUAAACGGUUUUUAUUAAAGAUGCUAUGGAACAUAAAGUUGUAUUG,0.743
CGGCGAUUCUAAUGGGAUUGACUGACUGGAGACCUCACAUCAUGUUCACAUUUAACCUUAAACACCUAUGCAGUCAUGUUGGGGGAGUGUCCCAAUGUUACCUCAACACC,0.416
AAUCUGAAUACUAAACAUAUUAGACCCACCUGAAAAUAAUAUAGCCAAUUUCUAGGUAAUCUUACUGCUUUGUGGGUUUCUUUCCAUGUACAUCUACCUCUUCCAGCUGU,0.304
UAUGCAAAAUGUCUGUUUUAGUUGGAAUGACUGAAAGAAGAACAGCUGUUCCUGUGUUCUUCGUAUAUACACACAAAAAGGAGCGGGCAGGGCCGCUCGAUGCCUUUGCU,0.776
CUACACCGGUAGCCUUCGCUGUCUGUCAGUCAGGACCUCUGGUAUAGGUGAUGUAAAAUAACCGUACAAUAUUAUGCAUGCUAUCCCAUAAUGCUUAGUGACUGUAUGAU,0.734
CUGAAGAGGGGCCGGCCUGAAGCCCAUGACCCCCCAGCACCACACUCCGGGAGCCCAGCCCCCAUCGGGGGCUUCCUGUACCUCCUUUUGCCUGGCUCUGCUCUUUAGAC,0.593
AUGGUUCAGUUCUAGGAAUGUUCUGGAAGAUGCUGUUAAUUUUACUUUAAAAUGAGAAUCUGGUGUUACUGUAUUUUAUCGUUUUCAAUAAAACUUCUUAAGUGUUUUGG,0.554
UGGAAUGCAGUGUGCUUUUUGAGACACUAGGGGGAGCCUGGUAUUAACUAAACAGCUUGCCAUUCAACAGUCUCAGGAGGGUUCUUGUACUAAACAGAUGGGGGUUCACU,0.368
UGAAGCAUUGUGGGUACUACCCGUGUCCCAUGUUCACAGUAACAAAUUCACAUGCAGGAUUUACUUUAUACUGUAGAAUACUGACUUUCAUGAUGACAACUUGAUUUAUG,0.379
UUCUGCGUAAAUUAAAUUGUGUACUGAAGGGAAAAGUUUGAUCAUACCAAACAUUUCCUAAACUCUCUAGUUAGAUAUCUGACUUGGGAGUAUUAAAAAUUGGGUCUAUG,0.289
CAGGGUUUGGGCCUAAUGGUUUUUACUAAAUUACUCCCCUCCUGCUCUCCGAGAAAGGGGAGCCAGAGCCGCUCACUGUGGUUCUGUUCCGACCUUGAAGGGGCGGUAUU,0.257

# Series 3
# Target: ABI1, truncated, D143A, DHFR fusion (Arabidopsis thaliana)
# Method: DHFR PCA, deep sequencing
# Matrix: yeast
# Setting: methotrexate growth selection, single substitutions
# Together with: (+)-ABA 17 µM
# Relative to: wild-type fitted maximum
# Reading: higher = stronger binding
# Starting sequence: PYL1, truncated, DHFR fusion (Arabidopsis thaliana); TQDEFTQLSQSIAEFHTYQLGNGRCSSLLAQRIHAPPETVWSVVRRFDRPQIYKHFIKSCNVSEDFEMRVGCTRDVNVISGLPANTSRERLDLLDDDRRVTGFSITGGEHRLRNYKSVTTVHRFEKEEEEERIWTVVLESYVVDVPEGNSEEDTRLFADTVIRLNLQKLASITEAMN
Variant,relative binding score
D48A,20.5%
N149K,7.4%
A175S,90.8%
V44D,-17.5%
E151K,86.8%
Y115E,3.75%
I57K,10.3%
S42C,56.4%

# Single results of other studies
Molecule,target,test,system,setting,scale,measurement,value
"PhoQ, residues 284 288 289 292 302 303 SCCLKL","PhoP, residues 12 14 15 18 19 YHFSH (Escherichia coli, UniProt P23836)","Sort-seq, measured: YFP reporter",E. coli,"PhoQ-PhoP variant library, together with: 10 µM Mg2+","relative to: high Mg2+ state, higher = stronger signaling",fold induction,1.14
